Measured values of several laboratories.
ADRA2A: Alpha-2A adrenergic receptor (ADRA2A, Homo sapiens, UniProt P08913)
Chain of UniProt P08913 (whole entry, looked up): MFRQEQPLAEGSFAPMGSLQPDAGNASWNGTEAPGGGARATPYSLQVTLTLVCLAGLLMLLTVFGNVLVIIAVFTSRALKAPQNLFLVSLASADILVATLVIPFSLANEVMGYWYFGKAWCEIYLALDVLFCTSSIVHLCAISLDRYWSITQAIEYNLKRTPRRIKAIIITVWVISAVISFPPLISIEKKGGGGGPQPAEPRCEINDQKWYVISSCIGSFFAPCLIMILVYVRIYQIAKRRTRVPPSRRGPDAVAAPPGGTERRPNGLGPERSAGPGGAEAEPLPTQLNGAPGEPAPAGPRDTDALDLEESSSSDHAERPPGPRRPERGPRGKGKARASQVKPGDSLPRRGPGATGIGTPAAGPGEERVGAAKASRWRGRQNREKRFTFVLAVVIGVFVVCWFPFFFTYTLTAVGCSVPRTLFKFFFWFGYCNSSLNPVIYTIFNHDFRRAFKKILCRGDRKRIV

SMILES | target or system | test | setting | how to read | measurement | value
OCCCN1CC[C@@H]2C[C@H]1c1cc(-c3ccc(C(F)(F)F)cc3)ccc12 | ADRA2A | radioligand binding, PDSP competition binding | 10 µM | – | inhibition | < 50%
O=C(NO)c1ccc(CN2CCCCc3ccccc32)c(F)c1 | ADRA2A | radioligand binding, radioligand displacement | 10 µM, mean of replicates | – | inhibition | 15.9%
CCS(=O)(=O)c1nc(S(=O)(=O)c2ccccc2Cl)c(N2CCN(C)C(=O)[C@H]2C)s1 | ADRA2A | – | 10 µM | – | inhibition | 1.85%
O=c1ncccn1[C@@H]1O[C@H](CO)[C@@H](O)[C@H]1O | OCI-Ly1 | – | 1 µM, 120 h | – | viability | 165%
COC(=O)[C@@H]1[C@H]2C[C@H]3c4[nH]c5ccccc5c4CCN3C[C@@H]2CC[C@@H]1O | ADRA2A | binding, antagonist, radioligand binding | – | – | Hill coefficient | 0.9
CCn1ccnc1CC1COc2ccccc2O1 (centres unmarked) | ADRA2A | TGFα shedding | concentration not given | – | inhibition | inhibited
NC(=O)c1nnn(Cc2cc(Cl)c(C(=O)c3ccc(Cl)cc3)c(Cl)c2)c1N | ADRA2A | cAMP, antagonist, cell-based GPCR | 10 µM | baseline: control | response | > 50%
CN(C(=O)n1cnc(-c2ccc[n+]([O-])c2)c1)C1CCCCC1 | ADRA2A | – | 10 µM | – | inhibition | 2.09%
CCN1/C(=C/C(C)=O)Sc2ccc(F)cc21 | ADRA2A | – | 10 µM | – | inhibition | 37.8%
CCCCc1nc2cc(/C=C/C(=O)NO)ccc2n1CCN(CC)CC | OCI-Ly1 | – | 1 µM, 120 h | – | viability | 1.96%
CN1CCC(CNc2ccc3ncc(-c4cccc(OC(F)(F)F)c4)n3n2)CC1 | ADRA2A | cAMP, antagonist, cell-based GPCR | 10 µM | baseline: control | response | > 50%

A few entries again:
SMILES | target or system | test | setting | how to read | measurement | value
CCS(=O)(=O)c1nc(S(=O)(=O)c2ccccc2Cl)c(N2CCN(C)C(=O)[C@H]2C)s1 | ADRA2A | – | 10 µM | – | inhibition | 1.85%
